Published values of several laboratories.
Each numbered part is a random draw from the data of one study; scales do not carry over between parts.
UniProt Q8NG66, sequence (whole entry, looked up): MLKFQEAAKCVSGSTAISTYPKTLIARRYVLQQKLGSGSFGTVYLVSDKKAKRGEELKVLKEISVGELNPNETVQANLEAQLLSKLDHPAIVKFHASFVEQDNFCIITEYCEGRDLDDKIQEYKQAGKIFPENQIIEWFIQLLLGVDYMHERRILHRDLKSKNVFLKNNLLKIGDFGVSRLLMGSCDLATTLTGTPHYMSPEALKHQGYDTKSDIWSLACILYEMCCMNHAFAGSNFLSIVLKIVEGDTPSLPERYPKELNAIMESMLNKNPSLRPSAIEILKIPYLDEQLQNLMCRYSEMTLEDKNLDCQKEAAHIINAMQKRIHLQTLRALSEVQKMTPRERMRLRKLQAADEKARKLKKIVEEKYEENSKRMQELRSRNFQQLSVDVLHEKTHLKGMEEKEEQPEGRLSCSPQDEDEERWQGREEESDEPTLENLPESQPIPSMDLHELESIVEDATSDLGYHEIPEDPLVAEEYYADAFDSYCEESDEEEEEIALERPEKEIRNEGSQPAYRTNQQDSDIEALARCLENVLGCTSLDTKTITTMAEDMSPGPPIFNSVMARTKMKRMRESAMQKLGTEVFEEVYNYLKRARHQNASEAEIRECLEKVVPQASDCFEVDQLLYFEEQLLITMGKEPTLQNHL
UniProt P22607, sequence (whole entry, looked up): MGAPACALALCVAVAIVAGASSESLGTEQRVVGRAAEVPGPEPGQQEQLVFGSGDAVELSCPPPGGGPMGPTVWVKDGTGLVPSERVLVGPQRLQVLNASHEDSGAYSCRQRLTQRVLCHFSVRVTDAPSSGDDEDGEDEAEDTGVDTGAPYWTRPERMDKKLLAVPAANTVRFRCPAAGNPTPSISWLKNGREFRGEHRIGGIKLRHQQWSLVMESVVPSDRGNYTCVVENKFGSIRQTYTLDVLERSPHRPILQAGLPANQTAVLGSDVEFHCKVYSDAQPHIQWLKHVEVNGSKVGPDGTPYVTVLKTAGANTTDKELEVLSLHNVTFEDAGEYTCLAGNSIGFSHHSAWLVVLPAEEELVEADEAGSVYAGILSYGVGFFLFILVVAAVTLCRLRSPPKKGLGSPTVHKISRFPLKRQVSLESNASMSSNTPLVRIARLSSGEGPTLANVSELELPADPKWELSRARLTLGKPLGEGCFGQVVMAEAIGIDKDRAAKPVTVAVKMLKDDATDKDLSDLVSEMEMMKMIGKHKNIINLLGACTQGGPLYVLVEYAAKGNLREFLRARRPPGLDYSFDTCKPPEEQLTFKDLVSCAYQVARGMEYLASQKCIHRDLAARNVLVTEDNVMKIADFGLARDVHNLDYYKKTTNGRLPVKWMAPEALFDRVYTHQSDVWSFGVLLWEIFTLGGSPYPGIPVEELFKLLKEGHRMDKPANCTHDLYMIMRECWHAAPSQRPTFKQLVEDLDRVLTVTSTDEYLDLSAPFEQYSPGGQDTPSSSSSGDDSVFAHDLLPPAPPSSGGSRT
UniProt P06213, sequence (whole entry, looked up): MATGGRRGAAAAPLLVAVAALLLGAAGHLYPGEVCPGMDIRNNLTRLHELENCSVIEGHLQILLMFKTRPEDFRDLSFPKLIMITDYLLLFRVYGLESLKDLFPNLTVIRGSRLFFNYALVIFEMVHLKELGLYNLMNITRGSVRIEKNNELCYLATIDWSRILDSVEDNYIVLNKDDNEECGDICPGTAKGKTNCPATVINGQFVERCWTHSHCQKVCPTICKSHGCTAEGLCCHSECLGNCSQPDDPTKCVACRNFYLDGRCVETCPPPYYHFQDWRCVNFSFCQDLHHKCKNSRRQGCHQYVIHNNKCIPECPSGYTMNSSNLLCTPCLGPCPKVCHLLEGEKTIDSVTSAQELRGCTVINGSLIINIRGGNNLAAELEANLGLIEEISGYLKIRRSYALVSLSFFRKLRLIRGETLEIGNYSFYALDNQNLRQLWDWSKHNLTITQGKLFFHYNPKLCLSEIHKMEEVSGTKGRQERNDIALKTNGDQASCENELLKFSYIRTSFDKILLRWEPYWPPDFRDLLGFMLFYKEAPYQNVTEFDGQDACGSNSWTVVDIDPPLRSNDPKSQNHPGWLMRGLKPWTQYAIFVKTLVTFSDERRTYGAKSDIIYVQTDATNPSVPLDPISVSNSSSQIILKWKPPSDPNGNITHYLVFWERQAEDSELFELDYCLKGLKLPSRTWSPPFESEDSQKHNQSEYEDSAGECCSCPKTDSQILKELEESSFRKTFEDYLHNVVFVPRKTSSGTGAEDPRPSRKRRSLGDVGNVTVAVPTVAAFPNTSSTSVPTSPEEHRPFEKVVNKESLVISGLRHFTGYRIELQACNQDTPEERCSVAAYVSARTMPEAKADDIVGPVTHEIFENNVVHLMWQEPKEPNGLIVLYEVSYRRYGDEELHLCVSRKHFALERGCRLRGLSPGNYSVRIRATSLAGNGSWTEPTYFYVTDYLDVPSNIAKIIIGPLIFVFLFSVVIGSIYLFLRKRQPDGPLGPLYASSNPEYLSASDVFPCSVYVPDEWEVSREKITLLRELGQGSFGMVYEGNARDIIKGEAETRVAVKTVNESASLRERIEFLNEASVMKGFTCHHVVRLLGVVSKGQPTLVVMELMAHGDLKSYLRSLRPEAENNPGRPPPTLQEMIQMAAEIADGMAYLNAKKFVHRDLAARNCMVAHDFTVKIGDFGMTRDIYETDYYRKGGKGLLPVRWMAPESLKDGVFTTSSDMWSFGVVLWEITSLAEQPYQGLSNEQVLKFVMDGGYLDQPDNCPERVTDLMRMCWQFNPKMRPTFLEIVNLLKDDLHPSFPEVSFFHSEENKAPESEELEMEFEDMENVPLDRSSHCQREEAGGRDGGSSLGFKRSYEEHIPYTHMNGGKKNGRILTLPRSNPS
UniProt Q14004, sequence (whole entry, looked up): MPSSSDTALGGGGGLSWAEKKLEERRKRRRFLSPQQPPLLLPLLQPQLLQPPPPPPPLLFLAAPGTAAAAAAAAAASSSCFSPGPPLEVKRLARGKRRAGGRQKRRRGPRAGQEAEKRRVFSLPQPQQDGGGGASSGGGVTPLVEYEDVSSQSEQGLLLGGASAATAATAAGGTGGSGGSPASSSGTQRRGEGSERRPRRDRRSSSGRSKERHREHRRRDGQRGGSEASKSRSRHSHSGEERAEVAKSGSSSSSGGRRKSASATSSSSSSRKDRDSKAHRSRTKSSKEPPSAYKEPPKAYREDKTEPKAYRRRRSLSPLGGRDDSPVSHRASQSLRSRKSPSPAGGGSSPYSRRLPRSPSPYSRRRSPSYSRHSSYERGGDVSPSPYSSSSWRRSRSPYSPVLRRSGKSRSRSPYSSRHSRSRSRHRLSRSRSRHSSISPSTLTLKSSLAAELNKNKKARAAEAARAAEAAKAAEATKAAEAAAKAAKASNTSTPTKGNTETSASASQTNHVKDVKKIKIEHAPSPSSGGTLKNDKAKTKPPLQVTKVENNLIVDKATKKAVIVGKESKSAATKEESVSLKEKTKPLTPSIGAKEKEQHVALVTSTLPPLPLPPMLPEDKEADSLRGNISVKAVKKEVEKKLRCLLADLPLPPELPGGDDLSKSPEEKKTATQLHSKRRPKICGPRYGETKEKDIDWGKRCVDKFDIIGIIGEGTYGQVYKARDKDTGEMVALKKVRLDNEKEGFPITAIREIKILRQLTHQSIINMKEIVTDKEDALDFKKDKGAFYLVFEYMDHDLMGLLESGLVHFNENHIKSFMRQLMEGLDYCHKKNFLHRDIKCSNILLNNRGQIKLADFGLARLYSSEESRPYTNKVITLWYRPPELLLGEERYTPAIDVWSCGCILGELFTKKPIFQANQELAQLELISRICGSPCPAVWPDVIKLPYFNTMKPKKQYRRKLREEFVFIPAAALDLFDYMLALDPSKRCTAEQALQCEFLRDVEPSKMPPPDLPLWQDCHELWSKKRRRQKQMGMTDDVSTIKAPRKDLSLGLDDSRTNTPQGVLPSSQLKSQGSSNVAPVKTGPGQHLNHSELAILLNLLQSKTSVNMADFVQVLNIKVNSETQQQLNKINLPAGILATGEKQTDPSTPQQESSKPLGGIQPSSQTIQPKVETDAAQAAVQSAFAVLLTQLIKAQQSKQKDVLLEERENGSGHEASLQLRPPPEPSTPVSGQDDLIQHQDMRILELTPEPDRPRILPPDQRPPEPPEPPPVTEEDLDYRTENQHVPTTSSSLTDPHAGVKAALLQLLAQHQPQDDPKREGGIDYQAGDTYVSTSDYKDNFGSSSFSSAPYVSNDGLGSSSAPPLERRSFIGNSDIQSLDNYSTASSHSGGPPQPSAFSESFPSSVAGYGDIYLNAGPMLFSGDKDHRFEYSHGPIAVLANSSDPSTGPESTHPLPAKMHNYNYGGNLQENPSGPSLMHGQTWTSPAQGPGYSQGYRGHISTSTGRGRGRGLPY
UniProt P28221, sequence (whole entry, looked up): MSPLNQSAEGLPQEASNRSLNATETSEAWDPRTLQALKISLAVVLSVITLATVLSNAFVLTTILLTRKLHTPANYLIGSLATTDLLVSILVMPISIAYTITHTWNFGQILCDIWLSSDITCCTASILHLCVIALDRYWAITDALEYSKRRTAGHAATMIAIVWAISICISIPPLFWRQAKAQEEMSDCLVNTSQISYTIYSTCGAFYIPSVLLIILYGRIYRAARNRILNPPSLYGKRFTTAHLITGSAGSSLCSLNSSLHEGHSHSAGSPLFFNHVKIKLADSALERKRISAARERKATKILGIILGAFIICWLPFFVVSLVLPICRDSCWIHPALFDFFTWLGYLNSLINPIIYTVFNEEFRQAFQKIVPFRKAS
UniProt P51817, sequence (whole entry, looked up): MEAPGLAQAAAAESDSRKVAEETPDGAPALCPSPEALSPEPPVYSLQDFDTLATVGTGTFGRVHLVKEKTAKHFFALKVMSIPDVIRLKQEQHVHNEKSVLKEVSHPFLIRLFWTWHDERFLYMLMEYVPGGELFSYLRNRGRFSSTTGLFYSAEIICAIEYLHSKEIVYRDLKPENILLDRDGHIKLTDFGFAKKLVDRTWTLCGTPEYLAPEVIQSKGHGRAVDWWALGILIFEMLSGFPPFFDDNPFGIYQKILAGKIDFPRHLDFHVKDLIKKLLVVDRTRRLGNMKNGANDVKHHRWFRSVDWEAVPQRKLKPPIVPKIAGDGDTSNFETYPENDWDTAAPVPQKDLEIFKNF

Study 1
Structure (SMILES): CC(=O)O/N=C1/C(c2c(O)[nH]c3cc(Br)ccc23)=Nc2ccccc21
Read-out: enzyme activity
Mode: inhibitor
Concentration: 0.5 µM
Baseline: control
target | remaining activity [%]
LIM domain kinase 1 (LIMK1, Homo sapiens, UniProt P53667) | 69.7
AKT1 (Homo sapiens, UniProt P31749) | 99.6
PASK (Homo sapiens, UniProt Q96RG2) | 86.2
FYN (Homo sapiens, UniProt P06241) | 20.9
FER (Homo sapiens, UniProt P16591) | 86.4
SRC (Homo sapiens, UniProt P12931) | 26.2
FLT4 (Homo sapiens, UniProt P35916) | 93.7
MATK (Homo sapiens, UniProt P42679) | 93
ALK (Homo sapiens, UniProt Q9UM73) | 86.7
NLK (Homo sapiens, UniProt Q9UBE8) | 106
Cyclin-dependent kinase 3, with cyclin E (CDK3, Homo sapiens, UniProt Q00526) | 36.3
CDC42BPA (Homo sapiens, UniProt Q5VT25) | 85.8
TAOK3 (Homo sapiens, UniProt Q9H2K8) | 72.4
FGR (Homo sapiens, UniProt P09769) | 14.8
NEK11 (Homo sapiens, UniProt Q8NG66) | 110
HIPK1 (Homo sapiens, UniProt Q86Z02) | 83
MARK3 (Homo sapiens, UniProt P27448) | 85.4
PKN1 (Homo sapiens, UniProt Q16512) | 96.1
Insulin receptor (INSR, Homo sapiens, UniProt P06213) | 94.8
PRKX (Homo sapiens, UniProt P51817) | 99.9
STK25 (Homo sapiens, UniProt O00506) | 80.9
ITK (Homo sapiens, UniProt Q08881) | 76.8

Study 2
Cell line: mouse MPNST tumor cells
Method: high-content nuclear imaging
Item: cell number
Concentration: 10 µM
Time: 12 h
Notes: mean of 2 replicates
Baseline: plate mean
Reading: higher = more cells
Compound | nuclei count [z-score]
O=C(O)CCC(=O)Nc1ccc(S(=O)(=O)Nc2nccs2)cc1 | 2.22
O=C(O)COc1ccc(/C=C2\SC(=O)NC2=O)cc1 | 2.12
C[C@@](Cc1ccc(O)c(O)c1)(NN)C(=O)O | 0.814
C=C1C(=O)O[C@@H]2C[C@@]3(C)CCC[C@H](C)C3=C[C@H]12 | -6
OCCn1cc(-c2ccc3c(c2)CC/C3=N\O)c(-c2ccncc2)n1 | 3.77
O=C(Nc1ccc(S(=O)(=O)Nc2nccs2)cc1)C(c1ccccc1)c1ccccc1 | 2.21
CC/C(=C(\c1ccc(O)cc1)c1ccc(OCCNC)cc1)c1ccccc1 | -6.04
O=C(O)c1cc(-c2ccc(C3CCNCC3)cc2)c2ccc(-c3ccc(C(F)(F)F)cc3)cc2c1 | 1.52
Cc1cccc(-c2[nH]ncc2-c2ccc(F)c(-c3cnn(CCO)c3)c2)n1 | -3.1
CC[N+](CC)(CC)CCOc1ccc(/C=C/c2ccccc2)cc1 | -1.06
CC[N+](C)(CC)CCC[n+]1c(-c2ccccc2)c2cc(N)ccc2c2ccc(N)cc21 | -0.332
COc1cc2c(cc1OC)CN(CCc1ccc(NC(=O)c3cc(OC)c(OC)cc3NC(=O)c3cnc4ccccc4c3)cc1)CC2 | 3.77
CC12CCC(=O)C=C1CCC1C2C(O)CC2(C)C1CCC2(O)C(=O)CO (stereo not drawn) | 1.75
CC(C)(Oc1ccc(CCNC(=O)c2ccc(Cl)cc2)cc1)C(=O)O | 1.16

Study 3
Host: mouse
Medium: microsomes or S9
Concentration: 2 µM
Time: 0.5 h
Compound | remaining compound [%]
O=S(=O)(c1ccccc1)N(CC(O)COc1cc(Cl)ccc1Cl)c1nccs1 (stereo not drawn) | 3.2
Cc1ccc2cc(CN(CCO)S(=O)(=O)c3ccc(C(C)(C)C)cc3)c(=O)[nH]c2c1C | 0.0886
O=C(OCc1cc(Cl)cc2c1OCOC2)c1cc2ccccc2[nH]1 | 67.9
O=c1c(C(c2ccncc2)c2c(O)nc3n(c2=O)CCCS3)c(O)nc2n1CCCS2 | 90.8
Cc1cccc(NC(=O)NC(C)c2n[nH]c(=O)n2C)n1 (stereo not drawn) | > 100
COC(=O)c1sccc1N1C(=O)C/C(=C/c2c[nH]c3ncccc23)C1=O | 0.53
CCC1(N2CCN(C(=O)c3sccc3C)CC2)CCN(S(C)(=O)=O)C1 (stereo not drawn) | 18.2
Cc1ccc(-c2ccccc2CN2C[C@@H](CN(C)C)[C@@H](CO)C2)o1 | 1.55
Clc1cccc(C(c2ccccc2)N2CCN(c3nn4nnnc4c4ccccc34)CC2)c1 (stereo not drawn) | 84.2
CC(C)COc1cc(=O)n2c(c1C(=O)NCCCN1CCCCC1)CCCCC2 | 15.2
CC(C)(C)CCNc1ccc(CNS(C)(=O)=O)cc1 | 13.5

Study 4
SMILES: CN1CCN(C(=O)c2ccc(NC(=O)Nc3ccc(N(C)c4ccnc(Nc5ccc(CS(C)(=O)=O)cc5)n4)cc3)cc2)CC1
Concentration: 1 µM
target | assay | conditions | scale | remaining binding [%]
CDK13 (Homo sapiens, UniProt Q14004) | competitive binding panel, item: CDC2L5 |  | baseline: vehicle | 13
FGFR3 (Homo sapiens, UniProt P22607) | competitive binding panel |  | baseline: vehicle | 100
PIK3CA (Homo sapiens, UniProt P42336, C420R) | competitive binding panel |  | baseline: vehicle | 100
Aurora kinase A (AURKA, Homo sapiens, UniProt O14965) | competitive binding panel |  | baseline: vehicle | 0
MAP3K12 (Homo sapiens, UniProt Q12852) | competitive binding | DLK |  | 30
NEK2 (Homo sapiens, UniProt P51955) | competitive binding panel |  | baseline: vehicle | 89
ZAP70 (Homo sapiens, UniProt P43403) | competitive binding panel |  | baseline: vehicle | 65

Single results of other studies
SMILES | target | assay | conditions | scale | quantity | result
O=C(Nc1cnc(Oc2ccc(F)cc2)nc1)N1CCc2ncccc2[C@@H]1c1ccc(F)cc1 | HTR1D (Homo sapiens, UniProt P28221) | binding, radioligand binding | 10 µM |  | inhibition | 4.38%
COc1ccc2c(c1)O[C@H](c1ccc(OC)c(OC)c1)C[C@@H]2NC(=O)C1(c2ccc3c(c2)OC(F)(F)O3)CC1 (single isomer, unassigned) | ABL1 (Homo sapiens, UniProt P00519, E255K) | KINOMEscan | 1 µM, E255K mutant, phosphorylated | baseline: control | remaining binding | 80%
Cc1c(NC(=O)c2cc(C(N)=O)nc3cc(F)ccc23)c(C(F)(F)F)nn1Cc1ccc(C(C)(C)C)cc1 | HTR3A (Homo sapiens, UniProt P46098) | binding, radioligand binding | 10 µM |  | inhibition | 7.59%

Repeated from above (study 1):
target | remaining activity [%]
MARK3 (Homo sapiens, UniProt P27448) | 85.4
PKN1 (Homo sapiens, UniProt Q16512) | 96.1
Insulin receptor (INSR, Homo sapiens, UniProt P06213) | 94.8
PRKX (Homo sapiens, UniProt P51817) | 99.9
STK25 (Homo sapiens, UniProt O00506) | 80.9
ITK (Homo sapiens, UniProt Q08881) | 76.8
